Published values pooled from the literature.
Lines come from different studies, so protocols differ. ± marks the error that the study gave.
rep main protease: Replicase polyprotein 1ab, main protease (rep, Severe acute respiratory syndrome coronavirus 2, UniProt P0DTD1)
cya: Calmodulin-sensitive adenylate cyclase (cya, Bacillus anthracis, UniProt P40136)
Spike glycoprotein: Spike glycoprotein (Severe acute respiratory syndrome coronavirus 2, UniProt P0DTC2)

| Structure (SMILES) | tested on | assay | system | conditions | how to read | quantity | result |
| --- | --- | --- | --- | --- | --- | --- | --- |
| C[C@H](NC(=O)c1[nH]nc2nc[nH]c(=O)c12)[C@@H]1CCN(C(=O)c2cc(-c3ccccc3)ccn2)C1 | rep main protease | enzyme activity, inhibitor | – | 5 µM, run 2 | – | inhibition | 15.2% |
| Nc1ccccc1-c1noc(-c2ccncc2)n1 | Replicase polyprotein 1ab, papain-like protease (rep, Severe acute respiratory syndrome coronavirus 2, UniProt P0DTD1) | – | – | – | – | lipophilic ligand efficiency | 1.34 |
| CNS(=O)(=O)C[C@H]1CC[C@H](N(C)c2[nH]cnc3nccc2-3)CC1.O=C(O)/C=C\C(=O)O | Replicase polyprotein 1ab, nsp14 N7-methyltransferase (rep, Severe acute respiratory syndrome coronavirus 2, UniProt P0DTD1) | N7-methyltransferase activity, inhibitor, Py-FLINT | – | – | – | Hill slope | 1.28 ± 0.34 |
| CC[C@H](C)[C@H](NC(=O)[C@H](CC(C)C)NC(=O)[C@H](Cc1c[nH]c2ccccc12)NC(=O)[C@H](CCC(N)=O)NC(=O)[C@@H](NC(=O)[C@H](Cc1ccccc1)NC(=O)[C@H](C)NC(=O)[C@H](CCCCNC(=O)COCCOCCNC(=O)COCCOCCNC(=O)CC[C@H](NC(=O)CCCCCCCCCCCCCCCCCCC(=O)O)C(=O)O)NC(=O)[C@H](CCC(N)=O)NC(=O)[C@H](C)NC(=O)[C@@H](NC(=O)[C@H](CCCCN)NC(=O)[C@H](CC(=O)O)NC(=O)[C@H](CC(C)C)NC(=O)C(C)(C)NC(=O)[C@@H](NC(=O)[C@H](CO)NC(=O)[C@H](Cc1ccc(O)cc1)NC(=O)[C@H](CC(=O)O)NC(=O)[C@H](CO)NC(=O)[C@@H](NC(=O)[C@H](Cc1ccccc1)NC(=O)[C@@H](NC(=O)CNC(=O)[C@H](CCC(=O)O)NC(=O)C(C)(C)NC(=O)[C@@H](N)Cc1ccc(O)cc1)[C@@H](C)O)[C@@H](C)O)[C@@H](C)CC)[C@@H](C)CC)C(C)C)C(=O)N[C@@H](C)C(=O)NCC(=O)NCC(=O)N1CCC[C@H]1C(=O)N[C@@H](CO)C(=O)N[C@@H](CO)C(=O)NCC(=O)N[C@@H](C)C(=O)N1CCC[C@H]1C(=O)N1CCC[C@H]1C(=O)N1CCC[C@H]1C(=O)N[C@@H](CO)C(N)=O | – | – | human, normal renal function, plasma | subcutaneous, 5 mg single dose, eGFR ≥ 90 (MDRD), geometric mean | – | AUC(0-inf) | 80500 ng·h/mL |
| CC[C@H](C)[C@H](NC(=O)[C@H](CC(N)=O)NC(=O)[C@H](CCC(=O)O)NC(=O)[C@H](C)NC(=O)[C@H](Cc1c[nH]cn1)NC(=O)[C@@H](NC(=O)[C@@H]1CCCN1C(=O)[C@H](CO)NC(=O)[C@@H]1CCCN1C(=O)[C@@H](NC(=O)[C@H](Cc1ccc(O)cc1)NC(=O)[C@@H](NC(=O)[C@H](CCCNC(=N)N)NC(=O)[C@H](CO)NC(=O)[C@@H](NC(=O)[C@H](Cc1c[nH]cn1)NC(C)=O)[C@@H](C)O)[C@@H](C)CC)[C@@H](C)CC)[C@@H](C)CC)C(N)=O | Polyprotein P1234, nsP2 protease domain (Chikungunya virus, UniProt Q8JUX6) | binding, phage display | – | – | direction not given | enrichment score | 38 |
| CC(C)[C@H](O)C(=O)N[C@@H](C)C(=O)N[C@@H]1C(=O)N(C)CCc2ccccc21 | rep main protease | reporter gene (Gaussia luciferase), inhibitor | – | 20 µM | – | inhibition | -1.53% |
| O=C(NC[C@H](NC(=O)c1cncc2sccc12)c1ccc2ccccc2c1)c1cocn1 | rep main protease | enzyme activity | – | 5 µM | – | inhibition | 19.3% |
| Nc1cc(O[C@@H]2CCN(C(=O)c3ccc(S(=O)(=O)F)cc3)C2)ccn1 | cya | – | – | – | – | kinact | 0.000133 s⁻¹ |
| CC[C@H](C)[C@H](NC(=O)[C@@H]1CCCN1C(=O)[C@H](C)NC(=O)[C@@H]1CSSC[C@@H]2NC(=O)[C@H](CC(=O)O)NC(=O)[C@H](CCCNC(=N)N)NC(=O)[C@H](CCC(=O)O)NC(=O)[C@H](CCCNC(=N)N)NC(=O)CNC(=O)[C@H](CC(=O)O)NC(=O)[C@@H]3CSSC[C@H](NC(=O)[C@H](CCC(=O)O)NC(=O)[C@H](CC(C)C)NC(=O)CNC(=O)[C@H](C)NC(=O)[C@H](CSSC[C@H](NC(=O)[C@H](Cc4ccccc4)NC(=O)[C@@H](N)CO)C(=O)N[C@@H](CC(C)C)C(=O)N[C@@H](C(C)C)C(=O)N[C@@H](CCCCN)C(=O)N[C@@H](Cc4c[nH]c5ccccc45)C(=O)N[C@@H](CCCCN)C(=O)N[C@@H](CCC(N)=O)C(=O)N3)NC2=O)C(=O)N[C@@H](Cc2c[nH]c3ccccc23)C(=O)N[C@@H](CCCCN)C(=O)N[C@@H](CCCNC(=N)N)C(=O)N[C@@H](CO)C(=O)N[C@@H](CCCNC(=N)N)C(=O)N[C@@H](CC(N)=O)C(=O)N[C@@H](CCCCN)C(=O)N[C@@H](CO)C(=O)N[C@@H](CO)C(=O)N[C@@H](C(C)C)C(=O)N1)C(=O)N[C@H](C(=O)O)[C@@H](C)O | ASIC1 (Homo sapiens, UniProt P78348) | ion current, outside-out patch clamp | HEK-293T | 100 nM | relative to: same patch before toxin | rise time slowing | 15 ± 2 fold |
| O=[N+]([O-])c1ccc(S(=O)(=O)N2CCN(c3ccnc4cc(Cl)ccc34)CC2)c([N+](=O)[O-])c1 | rep main protease | viral replication, mKate2 reporter | SARS-CoV-2 | 20 µM | – | inhibition | -0.479% |
| Nc1ncnc2c([C@@H]3N[C@H](CO)[C@@H](O)[C@H]3O)c[nH]c12 | Sudan ebolavirus | viral replication | HeLa, Boniface | 25 µM | – | inhibition | 88.3% |
| O=C(CCc1cncc2ccccc12)N1CCc2cccc(-c3cn(CCO)nn3)c21 | rep main protease | enzyme activity, inhibitor | – | 5 µM | – | inhibition | 23.3% |
| O=C(/C=C/c1ccc(O)c(O)c1)O[C@H]1[C@H](O)C[C@](O)(C(=O)O)C[C@H]1OC(=O)/C=C/c1ccc(O)c(O)c1 | Spike glycoprotein | binding, biolayer interferometry | – | – | – | kon | 178 M⁻¹ s⁻¹ |
| O=C(O)c1ccc(Cl)cc1O | rep main protease | reporter gene (Gaussia luciferase), inhibitor | – | 20 µM | – | inhibition | 0.553% |
| COc1ccc([C@@H](O)c2cc(-c3ncnc4cc(N5CCOCC5)ccc34)c(F)cc2Cl)nn1 | – | – | patients, advanced solid tumours | oral, 100 mg once daily, 10 dosing days, treatment-emergent, together with: avelumab, radiotherapy | – | injury, poisoning, procedural complications incidence | 2% |
| CCN(CC)N=O | – | – | male Wistar rats | ip, 100 mg/kg weekly, 4 injections, hepatic fibrosis model | – | body weight | 301 ± 4 g |
| COc1ccc(/C=C/c2cc(O)cc(O)c2)cc1O | Spike glycoprotein | binding, BLI | – | – | – | koff | 0.0481 s⁻¹ |
| O=C(N[C@@H](CNC(=O)[C@@H]1CCCc2cn[nH]c21)c1ccc2ccccc2c1)c1cccnc1 | rep main protease | enzyme activity, inhibitor | – | 5 µM, mean of runs | – | inhibition | 13.1% |

| Structure (SMILES) | tested on | assay | system | conditions | how to read | quantity | result |
| --- | --- | --- | --- | --- | --- | --- | --- |
| O=C(OC[C@H]1OC(OC(=O)c2cc(O)c(O)c(O)c2)[C@H](OC(=O)c2cc(O)c(O)c(O)c2)[C@@H](OC(=O)c2cc(O)c(O)c(O)c2)[C@@H]1OC(=O)c1cc(O)c(O)c(O)c1)c1cc(O)c(O)c(O)c1 (stereo partly drawn) | Spike glycoprotein | binding, biolayer interferometry | – | – | – | koff | 0.00373 s⁻¹ |
| CC(C)C[C@H](NC(=O)[C@@H](NC(=O)c1cccc(-c2ccccc2)n1)[C@@H](C)O)B(O)O | rep main protease | reporter gene (Gaussia luciferase), inhibitor | – | 20 µM | – | inhibition | -3.71% |
| CC1CCCCN1CCCNC(=O)c1cc(Sc2ccc(Cl)cc2)nc2ccccc12 (stereo not drawn) | SARS-CoV-2 | cytopathic effect | USA_WA1/2020 | first round 5-point | – | AC50 | 6.31 µM |
| Cc1ccc(C(=O)N2CC3(CCC3)C[C@H]2CNC(=O)c2cncc3[nH]cnc23)cc1O | rep main protease | enzyme activity, inhibitor | – | 5 µM, run 1 | – | inhibition | 17.1% |
| Cc1ccc(C(C)Nc2nc(N3CCNCC3)nc3ccccc23)cc1 (stereo not drawn) | SARS-CoV-2 | cytopathic effect, cell-based CPE | USA_WA1/2020 | round 2, 5-point dilution | – | AC50 | 5.01 µM |
| CC1(C)CC[C@]2(C(=O)O[C@@H]3O[C@H](CO)[C@@H](O)[C@H](O)[C@H]3O)CC[C@]3(C)C(=CC[C@@H]4[C@@]5(C)CC[C@H](O[C@@H]6O[C@H](C(=O)O)[C@@H](O)[C@H](O)[C@H]6O)C(C)(C)[C@@H]5CC[C@]43C)[C@@H]2C1 | Spike glycoprotein | binding, BLI | – | – | – | koff | 0.359 s⁻¹ |
| C=C1C(=O)C23C(O)C1CCC2C12COC3(O)C(O)C1C(C)(C)CCC2OC(C)=O (stereo not drawn) | rep main protease | viral replication, mKate2 reporter | SARS-CoV-2 | 20 µM | – | inhibition | -1.59% |
| O=c1c(O)c(-c2ccc(O)cc2)oc2cc(O)cc(O)c12 | Spike glycoprotein | binding, BLI | – | – | – | kon | 1590 M⁻¹ s⁻¹ |
| Nc1cc(OCCCNCc2ccc(S(=O)(=O)F)cc2)ccn1 | cya | – | – | – | – | kinact | 0.00105 s⁻¹ |
| Cn1cnc(Cn2c(=O)[nH]/c(=N\c3cc4cn(C)nc4cc3Cl)n(Cc3cc(F)c(F)cc3F)c2=O)n1 | – | – | human, moderate renal impairment | oral, 375 mg, treatment-related dry mouth, Severe severity | – | patients with adverse event | 0% |
| O=C(NC[C@H](NC(=O)c1cnoc1-c1ccccc1)c1ccc2ccccc2c1)c1cn[nH]n1 | rep main protease | enzyme activity, inhibitor | – | 5 µM, run 1 | – | inhibition | 7.2% |
| CC[C@H](C)[C@H](NC(=O)[C@H](CC(C)C)NC(=O)[C@H](Cc1c[nH]c2ccccc12)NC(=O)[C@H](CCC(N)=O)NC(=O)[C@@H](NC(=O)[C@H](Cc1ccccc1)NC(=O)[C@H](C)NC(=O)[C@H](CCCCNC(=O)COCCOCCNC(=O)COCCOCCNC(=O)CC[C@H](NC(=O)CCCCCCCCCCCCCCCCCCC(=O)O)C(=O)O)NC(=O)[C@H](CCC(N)=O)NC(=O)[C@H](C)NC(=O)[C@@H](NC(=O)[C@H](CCCCN)NC(=O)[C@H](CC(=O)O)NC(=O)[C@H](CC(C)C)NC(=O)C(C)(C)NC(=O)[C@@H](NC(=O)[C@H](CO)NC(=O)[C@H](Cc1ccc(O)cc1)NC(=O)[C@H](CC(=O)O)NC(=O)[C@H](CO)NC(=O)[C@@H](NC(=O)[C@H](Cc1ccccc1)NC(=O)[C@@H](NC(=O)CNC(=O)[C@H](CCC(=O)O)NC(=O)C(C)(C)NC(=O)[C@@H](N)Cc1ccc(O)cc1)[C@@H](C)O)[C@@H](C)O)[C@@H](C)CC)[C@@H](C)CC)C(C)C)C(=O)N[C@@H](C)C(=O)NCC(=O)NCC(=O)N1CCC[C@H]1C(=O)N[C@@H](CO)C(=O)N[C@@H](CO)C(=O)NCC(=O)N[C@@H](C)C(=O)N1CCC[C@H]1C(=O)N1CCC[C@H]1C(=O)N1CCC[C@H]1C(=O)N[C@@H](CO)C(N)=O | – | item: anti-drug antibodies | healthy subjects | 4.5 mg, postbaseline, multiple ascending dose, titre increase ≥4-fold | – | subjects with treatment-boosted ADA | 0% |
| CC(C)(C(=O)NCC(F)(F)C(F)(F)F)C(=O)N[C@@H]1C(=O)Nc2ccccc2-c2ccccc21 | rep main protease | reporter gene (Gaussia luciferase), inhibitor | – | 20 µM | – | inhibition | 0.921% |
| O=C(N[C@@H](CNC(=O)[C@@H]1CCCc2[nH]cnc21)c1ccc2ccccc2c1)c1cncc(F)c1 | rep main protease | enzyme activity, inhibitor | – | 5 µM, mean of runs | – | inhibition | 11.6% |
| CC(=O)Cc1cc(=O)c2c(C)cc(O)c([C@@H]3O[C@H](CO)[C@@H](O)[C@H](O)[C@H]3O)c2o1 | rep main protease | reporter gene (mKate2), inhibitor | – | 20 µM | – | inhibition | -0.136% |
| CCc1c(C(=O)C(N)=O)c2c(OCC(=O)O)cccc2n1Cc1ccccc1 | Daboia russelii venom phospholipase A2 | enzyme activity, inhibitor | TN population | 0.01 µM, together with: NOB substrate | relative to: venom alone | remaining activity | 100% |
| O=C(N[C@@H]1Cc2ccccc2[C@H]1NC(=O)c1cc(O)ccc1[N+](=O)[O-])c1ccc2[nH]nnc2n1 | rep main protease | enzyme activity, inhibitor | – | 5 µM, mean of runs | – | inhibition | 10.3% |
| CC[C@@H](Oc1nc(Oc2cccc(-c3cccc(CN)c3)c2)c(F)cc1F)C(=O)O | rep main protease | viral replication, Gluc reporter | SARS-CoV-2 | 20 µM | – | inhibition | 1.49% |
